Experimental data from different studies.
Each numbered part is a random draw from the data of one study; scales do not carry over between parts. Positions count from the first letter of the parent shown.

Block 1
Target: Ras GTPase-activating protein-binding protein 1, full length (G3BP1, Homo sapiens, UniProt Q13283)
Sequence of UniProt Q13283 (whole entry, looked up): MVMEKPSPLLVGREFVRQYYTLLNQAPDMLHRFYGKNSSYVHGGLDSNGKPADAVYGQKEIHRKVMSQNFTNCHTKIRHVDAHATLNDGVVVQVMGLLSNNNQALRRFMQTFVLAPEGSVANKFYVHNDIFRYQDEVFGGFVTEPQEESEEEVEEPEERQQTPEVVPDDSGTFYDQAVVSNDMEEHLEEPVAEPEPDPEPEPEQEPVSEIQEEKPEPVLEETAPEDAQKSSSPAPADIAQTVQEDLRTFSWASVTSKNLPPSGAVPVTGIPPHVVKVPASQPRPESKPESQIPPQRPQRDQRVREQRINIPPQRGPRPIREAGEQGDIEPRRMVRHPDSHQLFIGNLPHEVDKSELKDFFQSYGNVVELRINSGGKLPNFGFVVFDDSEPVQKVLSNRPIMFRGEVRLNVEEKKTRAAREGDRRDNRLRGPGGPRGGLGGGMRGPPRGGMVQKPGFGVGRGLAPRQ
Technique: RNA Bind-n-Seq
Form: RNA
Medium: in vitro
Concentration: 200 nM
Notes: whole 134-nt RNA, ends assumed
Added: 150 mM LiCl
Reference: input library
Reading: higher = stronger binding
Library: 7-deaza-guanosine replaces G
All sequences stand within: GGGAGUUCUACAGUCCGACGAUC … UGGAAUUCUCGGGUGUCAAGG
Sequence | log2 enrichment
CCUCAAGUCCUGUGCUACACAUCGUAUGUACCGAAUCGGUGGUUUUUGGAGGAAAGUAUUAUGUUACGCCGUUCGGAUCUGCACUUCCAG | 0.636
AGUCCUGUGCUACACAUCGUAUGUACCGAAUCGGGUUUGGGAAAGGGAAAAAAAGGGAAAGUAUUAUGUUACGCCGUUCGGAUCUGCACU | -0.286
UGGGAGGUGGAUUUUGGUUAUUUUUUUAGCUCAUUUCCAGGGGUGGGAAUUUUUUUUUAAUAUGUGUCAUGAAUAAAGUUGUUUUUGAAA | -0.06
AGUCCUGUGCUACACAUCGUAUGUACCGAAUCGGAAAAAGGGAAAAAGGGAAAAAGGAAAGUAUUAUGUUACGCCGUUCGGAUCUGCACU | -1.04
UCAAGUCCUGUGCUACACAUCGUAUGUACCGAAUCGGGAGGGUUUGGGUUUGGGAAAGUAUUAUGUUACGCCGUUCGGAUCUGCACUUCC | -0.151

Block 2
Target: CCNA2, cyclin fold, Cln2 fusion (human)
Technique: yeast growth competition, sequencing
Medium: yeast
Notes: weak parent motif
Reference: not given
Reading: higher = stronger binding
Parent: MASTL docking peptide (human); PMIAKNLMCELDE
Change | normalised enrichment score
L7Q | -0.0735
A4N | 0.311
D12G | 0.0829
M2W | -0.294
N6Y | 0.0864
M8N | -0.303
I3L | -0.202

Block 3
Target: Sal-like protein 4, full length isoform A (SALL4, Homo sapiens, UniProt Q9UJQ4, residues 1-1053)
Sequence of UniProt Q9UJQ4 (whole entry, looked up): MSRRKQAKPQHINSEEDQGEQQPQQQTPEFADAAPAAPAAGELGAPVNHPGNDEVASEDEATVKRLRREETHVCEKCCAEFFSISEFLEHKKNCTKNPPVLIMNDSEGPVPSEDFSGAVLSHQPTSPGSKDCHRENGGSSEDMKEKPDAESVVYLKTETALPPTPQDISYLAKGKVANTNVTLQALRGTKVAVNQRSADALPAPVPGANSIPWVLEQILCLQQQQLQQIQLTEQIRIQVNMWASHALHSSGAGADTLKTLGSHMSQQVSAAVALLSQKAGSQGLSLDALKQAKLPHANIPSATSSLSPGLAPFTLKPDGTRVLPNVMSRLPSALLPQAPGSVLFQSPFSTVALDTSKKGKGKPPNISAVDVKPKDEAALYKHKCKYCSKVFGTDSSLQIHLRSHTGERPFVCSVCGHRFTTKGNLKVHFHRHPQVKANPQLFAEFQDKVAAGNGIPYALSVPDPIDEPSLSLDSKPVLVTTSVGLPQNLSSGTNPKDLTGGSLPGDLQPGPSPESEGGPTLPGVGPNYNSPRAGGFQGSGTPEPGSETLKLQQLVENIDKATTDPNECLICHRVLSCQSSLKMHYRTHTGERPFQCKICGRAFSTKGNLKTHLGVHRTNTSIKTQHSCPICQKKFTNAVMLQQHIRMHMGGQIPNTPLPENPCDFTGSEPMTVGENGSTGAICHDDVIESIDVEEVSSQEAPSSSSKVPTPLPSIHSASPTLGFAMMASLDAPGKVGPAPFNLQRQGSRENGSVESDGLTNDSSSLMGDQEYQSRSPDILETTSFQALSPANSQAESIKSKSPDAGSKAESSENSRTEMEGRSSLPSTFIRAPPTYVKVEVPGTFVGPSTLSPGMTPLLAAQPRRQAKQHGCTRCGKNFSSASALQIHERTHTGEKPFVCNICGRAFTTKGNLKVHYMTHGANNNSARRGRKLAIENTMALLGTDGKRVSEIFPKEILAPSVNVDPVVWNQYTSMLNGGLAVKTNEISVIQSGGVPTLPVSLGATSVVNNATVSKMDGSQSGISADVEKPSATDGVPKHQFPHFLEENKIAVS
Technique: universal PBM
Form: double-stranded DNA, one strand shown
Medium: in vitro
Concentration: 600 nM
Notes: 8-mer, flanks averaged, mean of replicates
Reading: higher = stronger binding
Sequence | E-score
GAACTCCA | -0.0374
AAGAGTCA | 0.097
GTCGTAAA | 0.0896
ACTATTAC | 0.245
ACCACCCT | -0.257
ATTACGTA | 0.301

Other studies, line by line
Molecule | target | assay | test system | conditions | how to read | quantity | value
PhoQ, residues 284 288 289 292 302 303 AEGLLW | PhoP, residues 12 14 15 18 19 NQGLL (Escherichia coli, UniProt P23836) | Sort-seq, measured: YFP reporter | E. coli | PhoQ-PhoP variant library, added: 10 µM Mg2+ | reference: high Mg2+ state, higher = stronger signaling | fold induction | 1.67
